Measured values pooled from the literature.
Each line is one published result; not all experiments were run side by side.
SLC6A4: Sodium-dependent serotonin transporter (SLC6A4, Homo sapiens, UniProt P31645)
Sequence of UniProt P31645 (whole entry, looked up): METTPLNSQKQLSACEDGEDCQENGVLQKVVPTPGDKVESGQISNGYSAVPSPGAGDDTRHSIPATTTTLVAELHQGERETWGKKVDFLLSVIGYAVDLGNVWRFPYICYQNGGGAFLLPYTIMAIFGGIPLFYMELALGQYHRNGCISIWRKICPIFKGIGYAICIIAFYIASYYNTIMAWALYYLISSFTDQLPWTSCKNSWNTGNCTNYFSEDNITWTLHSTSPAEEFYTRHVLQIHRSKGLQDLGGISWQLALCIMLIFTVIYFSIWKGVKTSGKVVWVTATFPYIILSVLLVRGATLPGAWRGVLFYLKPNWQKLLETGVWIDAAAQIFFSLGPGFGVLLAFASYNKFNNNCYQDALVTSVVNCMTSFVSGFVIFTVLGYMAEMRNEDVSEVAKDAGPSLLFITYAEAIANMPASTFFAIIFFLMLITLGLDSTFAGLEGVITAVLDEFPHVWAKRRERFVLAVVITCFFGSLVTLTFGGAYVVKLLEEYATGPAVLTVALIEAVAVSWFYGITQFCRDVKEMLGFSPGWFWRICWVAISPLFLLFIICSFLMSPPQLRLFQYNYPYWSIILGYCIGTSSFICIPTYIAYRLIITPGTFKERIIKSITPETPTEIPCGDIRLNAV
MPO: Myeloperoxidase (MPO, Homo sapiens, UniProt P05164)
PDE10A: cAMP and cAMP-inhibited cGMP 3',5'-cyclic phosphodiesterase 10A (PDE10A, Homo sapiens, UniProt Q9Y233)
Sequence of UniProt Q9Y233 (whole entry, looked up): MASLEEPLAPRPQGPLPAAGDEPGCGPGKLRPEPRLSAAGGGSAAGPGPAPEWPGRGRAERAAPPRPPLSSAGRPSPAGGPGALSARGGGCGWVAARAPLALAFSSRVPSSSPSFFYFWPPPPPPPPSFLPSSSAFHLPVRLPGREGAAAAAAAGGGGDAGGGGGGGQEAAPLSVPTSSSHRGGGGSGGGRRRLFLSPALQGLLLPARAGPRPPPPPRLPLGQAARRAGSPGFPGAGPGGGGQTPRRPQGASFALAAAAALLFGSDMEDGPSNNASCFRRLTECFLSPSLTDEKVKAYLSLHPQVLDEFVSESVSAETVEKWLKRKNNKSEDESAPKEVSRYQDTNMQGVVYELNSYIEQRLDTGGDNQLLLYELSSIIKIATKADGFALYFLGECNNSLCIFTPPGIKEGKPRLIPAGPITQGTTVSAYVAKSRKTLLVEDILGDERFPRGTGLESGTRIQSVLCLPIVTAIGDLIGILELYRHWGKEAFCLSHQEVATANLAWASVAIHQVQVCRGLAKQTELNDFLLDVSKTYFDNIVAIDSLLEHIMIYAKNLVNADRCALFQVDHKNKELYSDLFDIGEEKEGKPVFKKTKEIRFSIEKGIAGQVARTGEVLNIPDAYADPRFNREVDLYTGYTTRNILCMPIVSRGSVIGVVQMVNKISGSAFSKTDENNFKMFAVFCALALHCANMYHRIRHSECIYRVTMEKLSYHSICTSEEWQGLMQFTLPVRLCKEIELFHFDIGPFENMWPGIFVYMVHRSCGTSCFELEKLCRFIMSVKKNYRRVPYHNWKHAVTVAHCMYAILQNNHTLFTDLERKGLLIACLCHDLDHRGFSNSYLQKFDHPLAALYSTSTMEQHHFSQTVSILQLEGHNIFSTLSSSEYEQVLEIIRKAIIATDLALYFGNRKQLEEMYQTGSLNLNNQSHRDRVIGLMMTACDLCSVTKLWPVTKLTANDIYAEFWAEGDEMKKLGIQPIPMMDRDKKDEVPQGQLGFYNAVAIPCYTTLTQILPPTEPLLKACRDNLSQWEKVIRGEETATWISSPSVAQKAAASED
USP51: Ubiquitin carboxyl-terminal hydrolase 51 (USP51, Homo sapiens, UniProt Q70EK9)
Sequence of UniProt Q70EK9 (whole entry, looked up): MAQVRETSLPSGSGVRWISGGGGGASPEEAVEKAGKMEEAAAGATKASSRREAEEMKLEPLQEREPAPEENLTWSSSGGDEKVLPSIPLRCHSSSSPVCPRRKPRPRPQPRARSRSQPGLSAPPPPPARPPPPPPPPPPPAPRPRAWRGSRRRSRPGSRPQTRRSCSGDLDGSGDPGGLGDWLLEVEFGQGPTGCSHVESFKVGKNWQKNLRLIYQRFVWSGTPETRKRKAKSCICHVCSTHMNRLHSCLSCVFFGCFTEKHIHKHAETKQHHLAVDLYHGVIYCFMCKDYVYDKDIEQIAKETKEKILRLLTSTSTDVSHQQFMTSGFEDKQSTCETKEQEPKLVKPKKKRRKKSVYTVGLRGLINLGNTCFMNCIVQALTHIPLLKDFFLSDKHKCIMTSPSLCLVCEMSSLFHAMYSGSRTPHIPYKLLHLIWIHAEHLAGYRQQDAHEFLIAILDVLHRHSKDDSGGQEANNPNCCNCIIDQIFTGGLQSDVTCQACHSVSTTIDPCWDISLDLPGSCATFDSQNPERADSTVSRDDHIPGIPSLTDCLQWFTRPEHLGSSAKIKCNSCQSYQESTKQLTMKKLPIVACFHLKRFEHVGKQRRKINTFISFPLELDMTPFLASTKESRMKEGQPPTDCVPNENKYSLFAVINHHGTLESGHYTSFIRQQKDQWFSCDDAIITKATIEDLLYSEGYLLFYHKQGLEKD
HDAC6: Protein deacetylase HDAC6 (HDAC6, Homo sapiens, UniProt Q9UBN7)
Sequence of UniProt Q9UBN7 (whole entry, looked up): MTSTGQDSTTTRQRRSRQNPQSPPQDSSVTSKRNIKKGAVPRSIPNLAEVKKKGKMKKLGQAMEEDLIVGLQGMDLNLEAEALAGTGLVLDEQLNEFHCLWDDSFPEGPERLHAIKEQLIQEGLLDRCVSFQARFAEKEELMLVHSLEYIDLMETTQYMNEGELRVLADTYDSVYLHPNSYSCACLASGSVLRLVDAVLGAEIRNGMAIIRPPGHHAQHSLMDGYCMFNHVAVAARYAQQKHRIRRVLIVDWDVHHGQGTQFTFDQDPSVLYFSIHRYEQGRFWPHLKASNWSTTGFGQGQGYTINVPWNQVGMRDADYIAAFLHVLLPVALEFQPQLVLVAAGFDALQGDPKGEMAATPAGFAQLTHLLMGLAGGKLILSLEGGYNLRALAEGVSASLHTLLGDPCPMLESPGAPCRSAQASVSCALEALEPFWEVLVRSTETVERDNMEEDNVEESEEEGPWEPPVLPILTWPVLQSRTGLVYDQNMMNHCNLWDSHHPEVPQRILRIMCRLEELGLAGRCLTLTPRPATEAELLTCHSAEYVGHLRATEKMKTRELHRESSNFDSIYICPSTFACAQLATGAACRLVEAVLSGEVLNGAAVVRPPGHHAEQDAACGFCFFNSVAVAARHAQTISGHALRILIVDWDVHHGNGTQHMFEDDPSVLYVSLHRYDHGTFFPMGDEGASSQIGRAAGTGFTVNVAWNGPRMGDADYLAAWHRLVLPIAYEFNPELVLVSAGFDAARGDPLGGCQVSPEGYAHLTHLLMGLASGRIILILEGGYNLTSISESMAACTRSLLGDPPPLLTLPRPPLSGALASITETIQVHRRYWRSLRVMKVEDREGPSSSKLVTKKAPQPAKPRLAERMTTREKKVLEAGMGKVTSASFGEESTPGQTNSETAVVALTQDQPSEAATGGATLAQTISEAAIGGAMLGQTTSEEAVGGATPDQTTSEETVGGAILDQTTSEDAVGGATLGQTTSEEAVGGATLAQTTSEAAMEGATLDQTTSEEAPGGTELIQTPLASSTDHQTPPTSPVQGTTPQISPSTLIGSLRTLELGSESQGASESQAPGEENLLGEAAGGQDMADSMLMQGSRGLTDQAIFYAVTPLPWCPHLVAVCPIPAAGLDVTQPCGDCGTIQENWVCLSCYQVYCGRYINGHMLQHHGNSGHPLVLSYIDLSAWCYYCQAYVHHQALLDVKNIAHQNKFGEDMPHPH
PTGS2: Prostaglandin G/H synthase 2 (PTGS2, Homo sapiens, UniProt P35354)
Sequence of UniProt P35354 (whole entry, looked up): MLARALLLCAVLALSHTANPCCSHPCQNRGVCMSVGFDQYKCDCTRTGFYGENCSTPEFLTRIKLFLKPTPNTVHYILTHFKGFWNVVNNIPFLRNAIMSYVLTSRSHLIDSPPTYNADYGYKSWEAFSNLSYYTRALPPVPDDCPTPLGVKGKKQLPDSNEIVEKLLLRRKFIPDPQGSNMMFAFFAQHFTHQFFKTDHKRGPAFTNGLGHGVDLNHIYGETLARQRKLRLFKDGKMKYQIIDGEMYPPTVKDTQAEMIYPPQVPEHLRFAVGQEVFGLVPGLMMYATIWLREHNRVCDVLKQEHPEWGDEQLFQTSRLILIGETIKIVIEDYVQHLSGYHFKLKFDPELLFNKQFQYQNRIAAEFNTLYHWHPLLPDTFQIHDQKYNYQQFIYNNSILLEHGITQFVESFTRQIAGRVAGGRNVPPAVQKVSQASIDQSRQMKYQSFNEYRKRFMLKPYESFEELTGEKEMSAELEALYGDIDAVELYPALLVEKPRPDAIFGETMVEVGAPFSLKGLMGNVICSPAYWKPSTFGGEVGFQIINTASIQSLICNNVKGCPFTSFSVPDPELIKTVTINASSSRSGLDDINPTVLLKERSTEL
CDK5 with p35: Cyclin-dependent kinase 5, with p35 (CDK5, Homo sapiens, UniProt Q00535)
HDAC1: Histone deacetylase 1 (HDAC1, Homo sapiens, UniProt Q13547)
Sequence of UniProt Q13547 (whole entry, looked up): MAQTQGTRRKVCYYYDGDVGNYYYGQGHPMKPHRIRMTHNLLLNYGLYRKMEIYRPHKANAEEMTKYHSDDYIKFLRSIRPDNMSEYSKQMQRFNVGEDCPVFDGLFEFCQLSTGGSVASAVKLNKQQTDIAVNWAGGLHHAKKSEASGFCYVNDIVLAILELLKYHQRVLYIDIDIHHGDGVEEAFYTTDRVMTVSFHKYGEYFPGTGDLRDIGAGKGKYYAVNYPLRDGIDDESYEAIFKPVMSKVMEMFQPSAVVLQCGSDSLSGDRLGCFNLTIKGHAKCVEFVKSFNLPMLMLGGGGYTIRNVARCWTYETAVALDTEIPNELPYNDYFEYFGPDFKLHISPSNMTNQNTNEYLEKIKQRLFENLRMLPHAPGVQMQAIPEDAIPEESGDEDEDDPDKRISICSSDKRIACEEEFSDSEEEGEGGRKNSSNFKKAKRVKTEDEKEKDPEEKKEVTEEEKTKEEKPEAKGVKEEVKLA
SIRT6: NAD-dependent protein deacylase sirtuin-6 (SIRT6, Homo sapiens, UniProt Q8N6T7)
Sequence of UniProt Q8N6T7 (whole entry, looked up): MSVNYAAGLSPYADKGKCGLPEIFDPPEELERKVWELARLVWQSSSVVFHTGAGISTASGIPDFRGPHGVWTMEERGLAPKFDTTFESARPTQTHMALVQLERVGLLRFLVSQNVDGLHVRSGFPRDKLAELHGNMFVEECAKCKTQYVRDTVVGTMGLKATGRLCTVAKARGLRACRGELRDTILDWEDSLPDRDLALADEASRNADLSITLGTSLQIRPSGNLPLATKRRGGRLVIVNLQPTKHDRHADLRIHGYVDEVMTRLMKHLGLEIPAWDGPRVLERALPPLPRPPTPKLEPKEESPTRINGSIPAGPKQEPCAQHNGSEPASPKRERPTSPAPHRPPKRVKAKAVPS

N#CC[C@@]12C[C@@H]1[C@@H](n1cnc3c(NCCCCCCc4ccccc4)nc(I)nc31)[C@H](O)[C@@H]2O  inhibition (SLC6A4; ligand displacement, radioligand; 10 µM, cell membranes): 82%
NC/C(=C\F)COc1cccc(Cn2c(=S)[nH]c(=O)c3[nH]cnc32)c1  inhibition (MPO; enzyme activity, inhibitor, fluorescence; 15 µM): 99.7%
COc1cc2nccc(Cc3cccc(-c4ccccc4)c3)c2cc1OC  inhibition (PDE10A; enzyme activity, inhibitor, FP; 0.1 µM): 33%
O=C1CCC[C@@H]2[C@H]3CCC[N+]4([O-])CCC[C@@H](CN12)[C@@H]34 (stereo partly drawn)  inhibition (USP51; enzyme activity, inhibitor; 5 µM): 6%
CC(C)c1[nH]c2nc(N)nn2c(=O)c1Cc1cccc(Cl)c1Cl  inhibition (C-C chemokine receptor type 5 (CCR5, Homo sapiens, UniProt P51681); β-arrestin recruitment, antagonist; 1 µM): 85%
CCCCCCCCCCCC1=C(O)C(=O)C=C(O)C1=O  inhibition (USP51; enzyme activity, inhibitor; 5 µM): 23%
Cc1cc([C@@H](C)Nc2ccccc2C(=O)O)c2nc(N3CCC(F)(F)CC3)c(C#N)c(=O)n2c1  remaining binding (Fibroblast growth factor receptor 3 (FGFR3, Homo sapiens, UniProt P22607); binding, competition with immobilised ligand; 10 µM): 100%
c1ccc(-c2cccc(Cc3ccnc4ccc(C5COC5)cc34)c2)cc1  inhibition (PDE10A; enzyme activity, inhibitor, FP; 0.1 µM): 39%
Cc1cc(OS(=O)(=O)Oc2ccc3ccccc3c2)cc(C(=O)NO)c1  inhibition (HDAC6; enzyme activity, inhibitor, fluorescence; 10 µM): 41%
CC(C)OCCn1c(=S)[nH]c(=O)c2[nH]ccc21  inhibition (MPO; enzyme activity, inhibitor, fluorescence; 30 µM): 99.9%
COc1cc(-c2cncc3c2CN(C)Cc2cc(N4CCNCC4)ccc2-3)cc(OC)c1OC  remaining activity (Cyclin-dependent kinase 13, with cyclin K (CDK13, Homo sapiens, UniProt Q14004); enzyme activity, inhibitor; 1 µM): 118%
C[C@H]1O[C@H](O[C@H]2[C@H](O)[C@@H](O)[C@@H](O[C@H]3[C@H](O)[C@@H](O)C(O)O[C@@H]3CO)O[C@@H]2CO)[C@H](O)[C@@H](O)[C@@H]1N[C@H]1C=C(CO)[C@@H](O)[C@H](O)[C@H]1O (stereo partly drawn)  inhibition (Alpha-glucosidase MAL12 (MAL12, Saccharomyces cerevisiae S288c, UniProt P53341); enzyme activity, inhibitor, absorbance; 400 µg/mL): 63.5%
COc1ccc(-c2oc3c(CC=C(C)C)c(O)cc(O)c3c(=O)c2O)cc1  inhibition (USP51; enzyme activity, inhibitor; 5 µM): 35%
CCCCC(=O)Nc1ccc(-c2ccc3ncn(CCC)c(=O)c3c2)cn1  remaining binding (Epidermal growth factor receptor (EGFR, Homo sapiens, UniProt P00533, L858R); binding, competition with immobilised ligand; 0.5 µM): 100%
COc1cc(-c2cccc(Cc3ncnc4cc(OC)c(OC)cc34)c2)ccc1CO  inhibition (PDE10A; enzyme activity, inhibitor, FP; 0.1 µM): 49%
O=C(O)c1ccc(O)cc1  inhibition (PTGS2; enzyme activity, inhibitor; 0.24 µg/mL): 8.14%
CC[C@H](C)[C@H](NC(=O)[C@H](CCC(N)=O)NC(=O)[C@@H](NC(=O)[C@H](CCSC)NC(=O)[C@H](CCCCN)NC(=O)[C@H](CO)NC(=O)[C@@H](NC(=O)[C@H](CCSC)NC(=O)[C@H](CC(C)C)NC(=O)[C@H](CC(N)=O)NC(=O)[C@@H](NC(=O)[C@@H](NC(=O)[C@H](CO)NC(=O)[C@H](CC(C)C)NC(=O)[C@H](C)NC(=O)[C@H](CCCNC(=N)N)NC(=O)[C@H](CCC(=O)O)NC(=O)[C@H](Cc1ccc(O)cc1)NC(=O)[C@H](Cc1ccccc1)NC(=O)[C@H](C)NC(=O)[C@H](CC(N)=O)NC(=O)[C@@H](N)CCCCN)[C@@H](C)CC)[C@@H](C)CC)[C@@H](C)O)C(C)C)C(=O)N[C@@H](CC(N)=O)C(=O)N[C@H](C(=O)O)C(C)C  inhibition (CDK5 with p35; enzyme activity, inhibitor, radiometric; 100 µM): 57%
O=c1c(-c2ccc(O)cc2)coc2c([C@@H]3O[C@H](CO)[C@@H](O)[C@H](O)[C@H]3O)c(O)ccc12  inhibition (USP51; enzyme activity, inhibitor; 5 µM): 0%
CNc1cc(Oc2cc(C(=O)Nc3cc(N4CCN(C)CC4)cc(C(F)(F)F)c3)ccc2C)ncn1  inhibition (STE20-like serine/threonine-protein kinase (SLK, Homo sapiens, UniProt Q9H2G2); target engagement in cells, inhibitor, chemoproteomics; Huh-7; 1 µM): -41.8%
COc1cc([C@H]2OC[C@H]3[C@@H]2CO[C@@H]3c2cc(OC)c(O)c(OC)c2)cc(OC)c1O  inhibition (PTGS2; enzyme activity, inhibitor; 15.63 µg/mL): 100%
C1=C/COCc2cc(ccc2OCCN2CCCC2)Nc2nccc(n2)-c2cccc(c2)COC/1  remaining binding (Mast/stem cell growth factor receptor Kit (KIT, Homo sapiens, UniProt P10721); binding; 0.1 µM): 7%
Cc1cc(OS(=O)(=O)Oc2cccc(C(C)(C)C)c2)cc(C(=O)NO)c1  inhibition (HDAC1; enzyme activity, inhibitor, fluorescence; 5 µM): 8%
COc1cc(-c2cc(C(C)=O)n3ccccc23)c(OC)cc1Cn1ccnc1  inhibition (Bromodomain-containing protein 9 (BRD9, Homo sapiens, UniProt Q9H8M2); protein-protein interaction, inhibitor, AlphaScreen; 1 µM): 98.9%
CC[C@H](C)[C@H](NC(=O)[C@H](CCC(N)=O)NC(=O)[C@H](CC(C)C)NC(=O)[C@H](CCSC)NC(=O)[C@H](CCCCN)NC(=O)[C@H](CO)NC(=O)[C@H](CO)NC(=O)[C@H](CCSC)NC(=O)[C@H](CC(C)C)NC(=O)[C@H](CC(N)=O)NC(=O)[C@@H](NC(=O)[C@@H](NC(=O)[C@H](CO)NC(=O)[C@H](CC(C)C)NC(=O)[C@H](CS)NC(=O)[C@H](CCCNC(=N)N)NC(=O)[C@H](CC(=O)O)NC(=O)[C@H](Cc1c[nH]c2ccccc12)NC(=O)[C@H](Cc1ccccc1)NC(=O)[C@H](C)NC(=O)[C@H](CCC(=O)O)NC(=O)[C@@H](N)CCCCN)C(C)C)[C@@H](C)CC)C(=O)N[C@@H](CC(N)=O)C(=O)N[C@@H](C)C(=O)O  inhibition (CDK5 with p35; enzyme activity, inhibitor, radiometric; 250 µM): 53%
Cc1ncsc1-c1ccc(CNC(=O)[C@@H]2C[C@@H](O)CN2C(=O)[C@@H](NC(=O)CCCCCCCCNC(=O)CN2CCN(C(=O)c3ccc(Nc4nc(C5CC5)cn5c(-c6cn[nH]c6)cnc45)c(F)c3)CC2)C(C)(C)C)cc1  inhibition (Serine/threonine-protein kinase RIO2 (RIOK2, Homo sapiens, UniProt Q9BVS4); cell-free assay, competition with immobilised ligand; 1 µM): > 65%
O=c1cc(-c2ccc(O)c(O)c2)oc2cc(O)cc(O)c12  inhibition (PTGS2; enzyme activity, inhibitor; 3.9 µg/mL): 100%
COc1cc(-c2cccc(Cc3ncnc4cc(OC)c(OC)cc34)c2)ccn1  inhibition (PDE10A; enzyme activity, inhibitor, FP; 0.1 µM): 74%
Cc1cc(OS(=O)(=O)Oc2ccc(-n3ccnc3)cc2)cc(C(=O)NO)c1  inhibition (HDAC1; enzyme activity, inhibitor, fluorescence; 10 µM): 22%
CC(C)[C@@H]1CC[C@@H](C)C[C@H]1O  inhibition (USP51; enzyme activity, inhibitor; 5 µM): 18%
Nc1c(Br)cc(Br)cc1CN[C@H]1CC[C@H](O)CC1  inhibition (Potassium voltage-gated channel subfamily A member 1 (KCNA1, Homo sapiens, UniProt Q09470); ion current, inhibitor, patch clamp; 10 µM): 0.595%
O=c1ccc2ccccc2o1  inhibition (USP51; enzyme activity, inhibitor; 5 µM): 32%
Cc1c(OS(=O)(=O)Oc2ccc(Br)cc2)cccc1C(=O)NO  inhibition (HDAC6; enzyme activity, inhibitor, fluorescence; 10 µM): 31%
N#Cc1ccccc1CONC(=O)c1ccc(C(N)=O)cc1  inhibition (SIRT6; enzyme activity, inhibitor, fluorescence; 100 µM): 63%
O=C(NO)c1cccc(OS(=O)(=O)Oc2ccc(Oc3ccccc3)cc2)c1  inhibition (HDAC6; enzyme activity, inhibitor, fluorescence; 10 µM): 15%
O=c1cc(-c2ccc(O)cc2)oc2cc(O)cc(O)c12  inhibition (PTGS2; enzyme activity, inhibitor; 3.9 µg/mL): 57%
Cc1cc(OS(=O)(=O)Oc2ccc(C(F)(F)F)cc2)cc(C(=O)NO)c1  inhibition (HDAC6; enzyme activity, inhibitor, fluorescence; 10 µM): 45%
Nc1ccc(C(=O)NOCc2ccccc2)cc1  inhibition (SIRT6; enzyme activity, inhibitor, fluorescence; 100 µM): 23%
C=C[C@@]1(C)C=C2CC[C@@H]3[C@](C)(CCC[C@@]3(C)C(=O)O)[C@H]2CC1  inhibition (PTGS2; enzyme activity, inhibitor; 7.81 µg/mL): 63.4%
COc1c(O)cc2c(c1O)[C@@H]1O[C@H](CO)[C@@H](O)[C@H](O)[C@H]1OC2=O  inhibition (USP51; enzyme activity, inhibitor; 5 µM): 0%
Cc1cc(OS(=O)(=O)Oc2ccc(C(C)(C)C)cc2)cc(C(=O)NO)c1  inhibition (Histone deacetylase 8 (HDAC8, Homo sapiens, UniProt Q9BY41); enzyme activity, inhibitor, fluorescence; 10 µM): 25%
CNc1ncc2c(/C=C/C(=O)N3CCC(OC)CC3)nn(Cc3cccc(C(F)(F)F)c3)c2n1  remaining activity (Serine/threonine-protein kinase N2 (PKN2, Homo sapiens, UniProt Q16513); enzyme activity, inhibitor, radiometric; 1 µM): 99%
CN1CC(Oc2cnc(C#N)cc2-c2ccn3nc(NC(=O)C4CC4)cc3c2)C1  inhibition (LIM domain kinase 1 (LIMK1, Homo sapiens, UniProt P53667); enzyme activity, inhibitor; 1 µM): 5%
CC12CC3CC(C)(C1)CC(N)(C3)C2  inhibition (Sodium channel protein type 1 subunit alpha (SCN1A, Homo sapiens, UniProt P35498); ion current, inhibitor, patch clamp; 10 µM): 12.4%
O[C@@H]1[C@H](O)[C@@H]2C[C@@H]2[C@H]1n1cnc2c(NCCC3CC3)nc(I)nc21  inhibition (SLC6A4; ligand displacement, radioligand; 10 µM): 5%
C=CC(=O)N1CCC(COCC(=O)N2CCN(c3nc(-c4cnc(N)nc4C(F)F)nc(N4CCOC[C@@H]4C)n3)CC2)CC1  remaining binding (Cyclin-dependent kinase 2 homolog (CRK2, Plasmodium falciparum, UniProt P61075); binding, competition with immobilised ligand; 1 µM): 92%
CC[C@]1(O)C[C@H]2CN(CCc3c([nH]c4ccccc34)[C@@](C(=O)OC)(c3cc4c(cc3OC)N(C=O)[C@H]3[C@@](O)(C(=O)OC)[C@H](OC(C)=O)[C@]5(CC)C=CCN6CC[C@]43[C@@H]65)C2)C1  inhibition (USP51; enzyme activity, inhibitor; 5 µM): 32%
CCCCCCC#Cc1cncc(-c2nnc(SCc3cc([N+](=O)[O-])cc([N+](=O)[O-])c3)n2CCCN)c1  inhibition (mraY (Staphylococcus aureus, UniProt Q2FZ93); cell-free assay, inhibitor; 250 µM): 100%
S=C(NCCc1ccccc1)NN=Cc1ccc(N2CCCCC2)cc1  inhibition (Dihydrofolate reductase (DHFR, Homo sapiens, UniProt P00374); enzyme activity, inhibitor; 500 µM): 86.4%

Excerpt of the above:
Nc1c(Br)cc(Br)cc1CN[C@H]1CC[C@H](O)CC1  inhibition (Potassium voltage-gated channel subfamily A member 1 (KCNA1, Homo sapiens, UniProt Q09470); ion current, inhibitor, patch clamp; 10 µM): 0.595%
O=c1ccc2ccccc2o1  inhibition (USP51; enzyme activity, inhibitor; 5 µM): 32%
Cc1c(OS(=O)(=O)Oc2ccc(Br)cc2)cccc1C(=O)NO  inhibition (HDAC6; enzyme activity, inhibitor, fluorescence; 10 µM): 31%
N#Cc1ccccc1CONC(=O)c1ccc(C(N)=O)cc1  inhibition (SIRT6; enzyme activity, inhibitor, fluorescence; 100 µM): 63%
O=C(NO)c1cccc(OS(=O)(=O)Oc2ccc(Oc3ccccc3)cc2)c1  inhibition (HDAC6; enzyme activity, inhibitor, fluorescence; 10 µM): 15%
O=c1cc(-c2ccc(O)cc2)oc2cc(O)cc(O)c12  inhibition (PTGS2; enzyme activity, inhibitor; 3.9 µg/mL): 57%
Cc1cc(OS(=O)(=O)Oc2ccc(C(F)(F)F)cc2)cc(C(=O)NO)c1  inhibition (HDAC6; enzyme activity, inhibitor, fluorescence; 10 µM): 45%
